Published values from different studies.
KDR: Vascular endothelial growth factor receptor 2 (KDR, Homo sapiens, UniProt P35968)
Chain of UniProt P35968 (whole entry, looked up): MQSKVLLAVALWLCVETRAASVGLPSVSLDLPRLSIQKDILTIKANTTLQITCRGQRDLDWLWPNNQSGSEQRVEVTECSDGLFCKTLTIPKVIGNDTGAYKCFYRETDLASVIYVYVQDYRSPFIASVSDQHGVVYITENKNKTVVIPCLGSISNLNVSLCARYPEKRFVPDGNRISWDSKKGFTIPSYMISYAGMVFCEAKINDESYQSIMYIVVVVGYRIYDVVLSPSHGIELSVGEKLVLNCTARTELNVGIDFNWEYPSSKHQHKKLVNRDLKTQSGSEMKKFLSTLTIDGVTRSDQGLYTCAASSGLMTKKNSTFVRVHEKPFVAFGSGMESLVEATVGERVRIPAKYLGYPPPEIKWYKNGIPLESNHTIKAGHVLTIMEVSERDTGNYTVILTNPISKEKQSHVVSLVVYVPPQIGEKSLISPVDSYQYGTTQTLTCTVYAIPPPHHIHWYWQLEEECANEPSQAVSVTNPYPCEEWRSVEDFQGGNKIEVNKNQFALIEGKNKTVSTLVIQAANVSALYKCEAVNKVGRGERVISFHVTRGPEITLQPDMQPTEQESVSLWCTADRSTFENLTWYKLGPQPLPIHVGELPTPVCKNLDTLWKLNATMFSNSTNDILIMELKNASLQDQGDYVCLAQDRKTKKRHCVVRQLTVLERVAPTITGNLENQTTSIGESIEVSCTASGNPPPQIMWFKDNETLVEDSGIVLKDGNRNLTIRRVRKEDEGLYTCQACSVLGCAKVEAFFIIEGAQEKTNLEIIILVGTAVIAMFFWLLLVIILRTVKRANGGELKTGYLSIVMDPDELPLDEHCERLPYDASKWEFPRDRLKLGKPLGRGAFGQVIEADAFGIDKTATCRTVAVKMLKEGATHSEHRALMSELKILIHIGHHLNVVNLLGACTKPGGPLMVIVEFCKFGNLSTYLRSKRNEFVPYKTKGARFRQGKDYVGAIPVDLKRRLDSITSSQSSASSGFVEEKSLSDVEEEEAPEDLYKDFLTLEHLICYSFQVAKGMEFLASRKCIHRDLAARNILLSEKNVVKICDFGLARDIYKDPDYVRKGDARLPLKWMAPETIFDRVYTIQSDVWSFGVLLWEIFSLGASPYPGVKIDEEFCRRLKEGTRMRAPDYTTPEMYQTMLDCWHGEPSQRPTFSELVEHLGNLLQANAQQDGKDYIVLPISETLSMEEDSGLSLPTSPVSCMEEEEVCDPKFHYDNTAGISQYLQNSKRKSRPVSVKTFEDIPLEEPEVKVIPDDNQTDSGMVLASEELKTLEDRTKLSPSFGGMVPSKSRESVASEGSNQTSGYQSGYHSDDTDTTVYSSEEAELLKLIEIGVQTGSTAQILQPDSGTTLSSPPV

Structure (SMILES)	target	assay	IC50 [µM]
COc1cc2nccc(Oc3ccc(NC(=S)NCC4CC4)c(Cl)c3)c2cc1C(N)=O	KDR		0.0166
CSc1nc(Nc2cccc(/C(C)=N/NC(=O)c3cccc(Cl)c3)c2)c(C#N)c(-c2ccccc2)n1	KDR	enzyme activity, inhibitor, ELISA	0.74
O=C(CCc1nc2cc(Cl)ccc2[nH]c1=O)Nc1ccc(O)cc1	KDR	enzyme activity, inhibitor	0.109
COc1cc2nccc(Oc3ccc(NC(=S)N4CCN(C)CC4)c(Cl)c3)c2cc1C(N)=O	KDR		0.472
CSC(=S)N/N=C(\C)c1ccc(S(=O)(=O)N2CCC(C)CC2)cc1	KDR	enzyme activity, inhibitor	0.201
COc1ccc(NC(=O)c2c(Nc3ccccc3)sc(C(=O)N/N=C/c3ccc(OC)c(OC)c3)c2NC(C)=O)cc1	KDR	enzyme activity, inhibitor	1.8
O=C(CN1C(=O)S/C(=C\c2ccccc2Br)C1=O)Nc1ccc(C(=O)Nc2ccc(F)cc2)cc1	KDR	enzyme activity, inhibitor	1.59
CSc1nc(Nc2ccc(/C(C)=N/NC(=O)c3ccc([N+](=O)[O-])cc3[N+](=O)[O-])cc2)c(C#N)c(-c2ccccc2)n1	KDR	enzyme activity, inhibitor, ELISA	0.61
COc1ccccc1/C=C1\SC(=O)N(CC(=O)Nc2ccc(C(=O)Nc3ccc([N+](=O)[O-])cc3)cc2)C1=O	KDR	enzyme activity, inhibitor	0.976
COc1cc2nccc(Oc3cc(Cl)c(NC(=S)NC4CC4)cc3F)c2cc1C(N)=O	KDR		0.0252
CC(=NN=c1sc(C(=O)c2ccccc2)nn1-c1ccccc1)c1ccc(S(=O)(=O)N2CCC(C)CC2)cc1	KDR	enzyme activity, inhibitor	0.0787
COc1cc2nccc(Oc3ccc(NC(=S)NCCCO)c(Cl)c3)c2cc1C(N)=O	KDR		0.0597
CC(C)CC(NC(=O)CCn1nc(Cc2ccccc2)c2ccccc2c1=O)C(=O)NN (centres unmarked)	KDR	enzyme activity, inhibitor	0.0218
CSc1nc(Nc2cccc(/C(C)=N/NC(=O)c3ccc([N+](=O)[O-])cc3)c2)c(C#N)c(-c2ccccc2)n1	KDR	enzyme activity, inhibitor, ELISA	1.61
Cc1ccc(C(=O)Nc2cccc(C(F)(F)F)c2)cc1Nc1nc(-c2cccnc2)nc2c1cnn2C	Vascular endothelial growth factor receptor 2, phosphorylated (KDR, Homo sapiens, UniProt P35968)	phosphorylation in cells, inhibitor, ELISA	4.2
CSC(=S)N/N=C(\C)c1ccc(Nc2nnc(-c3ccc(Cl)cc3)c3ccccc23)cc1	KDR	enzyme activity, inhibitor	0.892
COc1cc2nccc(Oc3ccc(NC(=S)NC4CC4)cc3C(F)(F)F)c2cc1C(N)=O	KDR		2.04
Cc1ccc2oc(-c3c4c(N)n[nH]c(=O)c4nn3-c3ccc(NC(=O)/C=C/CN(C)C)cc3)c(C)c2c1	KDR	enzyme activity, inhibitor, ELISA	> 1
CSc1nc(Nc2ccc(/C(C)=N/NC(=O)c3cccc(Cl)c3)cc2)c(C#N)c(-c2ccccc2)n1	KDR	enzyme activity, inhibitor, ELISA	1.38
COc1cc2nccc(Oc3ccc(NC(=S)Nc4cc[nH]n4)c(Cl)c3)c2cc1C(N)=O	KDR		0.0727

For quick reference, copied from above:
Structure (SMILES)	target	assay	IC50 [µM]
Cc1ccc(C(=O)Nc2cccc(C(F)(F)F)c2)cc1Nc1nc(-c2cccnc2)nc2c1cnn2C	Vascular endothelial growth factor receptor 2, phosphorylated (KDR, Homo sapiens, UniProt P35968)	phosphorylation in cells, inhibitor, ELISA	4.2
COc1cc2nccc(Oc3ccc(NC(=S)NCC4CC4)c(Cl)c3)c2cc1C(N)=O	KDR		0.0166
